Measurements of several laboratories.
Numbered parts are unrelated; each lists some results of a single study.

Block 1
Target: RNA binding protein fox-1 homolog 2, RRM domain, GST-SBP tag (RBFOX2, Homo sapiens, UniProt O43251-10, residues 100-194)
Method: RNA Bind-n-Seq
Form: RNA
Sample: in vitro
Concentration: 365 nM
Notes: natural RNA segment, single round, ends assumed
Baseline: no-protein control
Reading: higher = stronger binding
Measurement: RBNS enrichment (R)
Constant ends, left off below: GGGAGUUCUACAGUCCGACGAUC … UGGAAUUCUCGGGUGCCAA
Residues (chain): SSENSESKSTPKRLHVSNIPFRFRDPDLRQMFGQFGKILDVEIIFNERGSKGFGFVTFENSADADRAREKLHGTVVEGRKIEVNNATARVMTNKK
UUUCAUCUGUGUUCUGAAAUAUAAAAUACAACCAAAAUUCUACCUUCAUCCUACCCAGAAAUUAUUGAUUUUCAAGUUUUAAAAAAAUUGUACCUUUUUUGCUGACAGAA: 0.755
CAGCCCUGAGCGUGCUGAGUUCUGUGUUUCUCUGAAUAGAGGUGUGGAACCUGAGGGGCCAGCAGGCCUCUCUGAAGGCCUCCAUGGAGCAAACGGAGCCACCUCGGGAA: 0.3
GGGAUGAACUGCUCCCUCUAGCCUUACUGGCUCUGAUCCACAGGGUUUUGUUUUGUUUUGUUUUGUUUUUUGUUUAAGUCGAGAUAUAAAAACUGAACACGAUAACACUU: 0.295
CAAGGUGAUAUAUAAUCAUAUCCAGUUUAAUCUUCACAAUAUCCAAUGAAGAAGGUCUCAUUAUCUCCAUGAUAAAGAUGGGGAAACUAAGGUCAGAAGGGUUAACUCAA: 0.208
AGUGUCUCUUUACAUGGAUAUUUUGCCUGUCAAAUGAAUUGAUAGCUAAUAAAAGUCAACAAGCCAUAGAAUCUAAUUCUUUAUUGCAGAAUUACUUGUUUUAACAGAAU: 0.464
GUGGGGGAGGGAGGGAAAGAGAAGAGCUCUGCACUUCCCUUUGUUGUAGUCUCACAGUAUAACAGAUAUUCUAAUUCUUCUUAAUAUUCCCCCAUAAUGCCAGAAAUUGG: 0.748
CAUCUGGCUUGAACUUUUUUUGUCCUUCCUGGAAUAGCUUCAGAUCAAUAGGCUUAAUGAAAGAGGUCUUUCUUGCUUUGGCUGAGAGCAGCCUCUUUUUAAAGUGUGAU: 0.252
CACAAGCAGACACUGCUGGACUUAGAAGUUUCUAUUUGAGUUCCUUAAACUACAAAACUAAUAUGUAUGUGUACCAAACUGAUUUAAAAUAAAUGUUUAUUAGUCUCUUG: 0.821
AAAGCCUAUCCUUAAAAAAUAAACCUGUUGAAAUGGGCUUUAAAGACAUCGAAAUAAUCACUUGUCAUGCAUUGACUGUAAAUGCAGAUAGAGAAAUAUGUCUUUGAAGC: 0.489
CCUAUAACAAAAAUAAUCUAGUUUUCAUUUCCUUACUAGCUAGAUGCGAAUUUGUCUUUUUGAAUGACCCUGUCAAUAAGCCAGAAAGGGCAACCCAGAAAAAGUGCUCC: 0.885
GGGGUCCUGGCCACCUCCUAAGCCACUAACGCCACCUUGCCACCUUGUCCCAGUUGUCCAAAACAGCUGGAACUUGUCUUCACCGCCCAGGGCACCGCCUCCCCGUGUCC: 0.45
UCUUUUGAUUCCUCUUGGGCUGAAGCAGACCAAGUUCCCCCCAGGCACCCCAGUUGUGGGGGAGCCUGUAUUUUUUUUAACAACAUCCCCAUUCCCCACCUGGUCCUCCC: 0.598

Block 2
Target: Centromere-binding protein 1, full length, His-tagged (CBF1, Saccharomyces cerevisiae, UniProt P17106, residues 1-351)
UniProt P17106, sequence (whole entry, looked up): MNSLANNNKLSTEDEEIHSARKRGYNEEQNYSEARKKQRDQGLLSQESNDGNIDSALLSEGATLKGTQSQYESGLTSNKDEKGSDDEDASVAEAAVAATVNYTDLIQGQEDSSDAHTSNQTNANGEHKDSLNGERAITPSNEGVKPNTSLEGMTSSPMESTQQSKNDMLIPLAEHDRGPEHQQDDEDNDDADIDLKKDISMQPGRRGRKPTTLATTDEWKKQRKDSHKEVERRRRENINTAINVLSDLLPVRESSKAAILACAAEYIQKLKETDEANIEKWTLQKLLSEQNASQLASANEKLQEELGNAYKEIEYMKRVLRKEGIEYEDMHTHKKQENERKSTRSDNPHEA
Method: competition protein-binding microarray
Form: double-stranded DNA, one strand shown
Sample: in vitro
Concentration: 2 µM
Notes: whole 60-bp probe, lowest competitor level
With: Pho4 competitor, 0.05 µM
Reading: higher = stronger binding
Measurement: fluorescence intensity
Constant ends, left off below: … GTCTTGATTCGCTTGACGCTGCTG
CACAACCTTAACAGCAACGTGAACCTCAACATGAAC: 116 a.u.
GAGTTTGATTCCAAACTCGTGGTGATACCAACGAAG: 102 a.u.
CATACCCAACCTTGAACGGTGGGTGAAGATATTTGT: 65.7 a.u.
CGATTTTTGCCTCACCACGTTCTGCCCATTCTTCTC: 100 a.u.
CCTTGTTTACCGTTCGCCGTGATGGCTCCTTGAGCA: 55.5 a.u.
AAATTACTAAGTTGACGTGTGGGTGACGCCGTATGA: 73.1 a.u.
AAGGTTTCGTTATCTACCGTGTCGGAGTTAGAAGTG: 66 a.u.
TGCGCAACAACTTTTCACGTGTTATTATGTCTAGAA: 1170 a.u.
TTGGCCGGGTCTTGTCACGTGAAGAGAGAAATTCGG: 6500 a.u.
ACCGTTGGTAGAAGCATCGTGGGTAGAAATGGTGGA: 75.8 a.u.
CTTCTGTAAATTTGTATCGTGGGTGGACGCGCCCCG: 90.7 a.u.
ATGTACAGCGGTACCCTCGTGTTTTCTGCAGCGAGA: 85 a.u.
AAAAGTAACCATAGTCTCGTGCTAATTCGGTACTAT: 230 a.u.
ATCTTTCCCCGCATTCTCGTGGGTACCAAATAAGCT: 78.2 a.u.
ATGCCCGACCGTACCGACGTGGCAATATTTTTGGGA: 64.3 a.u.
CTTTCCCGATCTTGCGGCGTGGGTGTAGCACATTTG: 65.2 a.u.
CTTTCCCGATCTTTTCACGTGATGTTAGCACATTTG: 3050 a.u.
CTTCTGTAAATTTGTCACGACACTTGACGCGCCCCG: 252 a.u.
GCATCCACAACCGCTCTCGTGGAACCAAACGAAGAT: 67.8 a.u.
AAATTACTAAGTTGTCACTTTACTTACCCCGTATGA: 85.6 a.u.

Block 3
Target: RING finger protein unkempt homolog, zinc fingers 1-6, GST-SBP tag (UNK, Homo sapiens, UniProt Q9C0B0, residues 30-357)
UniProt Q9C0B0, sequence (30-357, looked up): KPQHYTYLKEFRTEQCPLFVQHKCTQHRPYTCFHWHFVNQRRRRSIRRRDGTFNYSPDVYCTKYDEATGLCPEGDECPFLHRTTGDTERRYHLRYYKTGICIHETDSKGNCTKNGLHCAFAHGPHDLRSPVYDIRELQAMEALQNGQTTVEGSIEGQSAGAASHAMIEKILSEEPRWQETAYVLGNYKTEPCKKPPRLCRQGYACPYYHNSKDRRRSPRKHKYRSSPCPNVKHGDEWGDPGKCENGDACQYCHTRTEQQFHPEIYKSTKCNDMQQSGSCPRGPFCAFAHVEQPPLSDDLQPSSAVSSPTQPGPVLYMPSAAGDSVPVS
Method: RNA Bind-n-Seq
Form: RNA
Sample: in vitro
Concentration: not given
Notes: RNA with constant flanks, human and mouse sites, ends assumed
Baseline: input RNA pool
Reading: higher = stronger binding
Measurement: bound/input enrichment
Constant ends, left off below: GGGAGUUCUACAGUCCGACGAUC … CAACAGAGGAUUGAGCAUCA
UCUUUACAUUAUAACCACUCUGCUAAGUUUUUGAAGGAGUUGACGUUAUCCAUGGAUGAACUGGAAGAAAAUUUUCGAGGUAUGCUGAAAAGCGCAGCCACCAAAGUCACCACAGUACUA: 0.196 ratio
UCUGGCCAUGGCCCCUCUGCCAAGCCUGUGUGCGAUGCCCUUGGUGCUUUAGUGCAAGAAGCCUAGGCUCAGAAGCACAGCAGCGCCAUCUUUCCGUUUCAGGGGUUGUGAUGAAGGCCA: 0.116 ratio
AAAAUCUCUGAUGACCUGAUGCAGAAGAUCAGCACUCAGAACCGCCGAGCCCUGGACCUCGUAGCUGCCAAGUGUUACUAUUAUCACGCCCGGGUCUAUGAGUUCCUGGACAAGCUGGAU: 0.141 ratio
AAUGUGACUUCCAUGAUAAACCUAAAGAAGACUACUUCAUCAGCUGAUGCUAAAAAUGUUAGUGUGACAUCUGAGGCUUUAUCUUCAAAUCCUUCCUACAACAGAGAAAAGCGUGUUUAU: 0.131 ratio
UUACAACUCAGAUUUUAUUUAUUUUGAAAUUAUCAAUUGUAUAAAUCUAAUUUAUUACCAAAUAGGGUCUUUUAAAAAAUAUUUUUAUCGUUGAAACCUUGACAGGUACUUCAUAUUCUU: 6.25 ratio
GAGUCUCAUUGGGAAGAAAAUAGAAAUGAAAAUUCAGGAAAUUCUUGGAAUAAAAACUUUGGUUCUGGUUGGGUAUCUAACCGUGGUAGAGGCAGAGGCAACCGUGGCAGAGGCACUUAC: 1.18 ratio
GGACUAGAACACGUUACUGUUGAUGACUUGGUGGCUGAAAUCACUCCAAAAGGCAGAGCCCUGGUACCUGACAGUGUAAAGAAGGAGCUCCUACAAAGAAUAAGAACAUUCCUUGCUCAG: 0.143 ratio
GGGCCCUGGAAGCUGACGGCGUCCAAGACCCACAUCAUGAAGUCGGCGGAUGUGGAGAAAUUAGCCGAUGAAUUACAUAUGCCAUCUCUCCCUGAAAUGAUGUUUGGAGACAACGUUUUA: 0.183 ratio
AGUAAAGAGGGGAAACCUAAGACCAUAAUUGUGAAUUGGCAGCCUCCCUCCGAAGCCAAUGGCAAAAUUACAGGUUACAUCAUAUAUUACAGUACAGAUGUGAAUGCAGAGAUACAUGAC: 0.15 ratio
UGUCAACACUGCUUUGAACAGUGCUCUGUGAAGUGUAAGUUCUUUUGUCCCAACAGUUGUACUAGCUGUCAUGUGGUUAUUGUCUGAACAAGUCUUUUGAUUUUGUUUUCCUUAAAAAGU: 0.186 ratio
CUGUCACACUCCAAGGGCCACCAGAAGCGCAAGGCCCUCAAGACGACAGUCAUCCUCAUCCUAGCUUUCUUUGCCUGCUGGCUGCCAUAUUAUGUGGGGAUCAGCAUCGACUCCUUCAUC: 0.212 ratio

Block 4
Target: Fragile X messenger ribonucleoprotein 1, C-terminal low-complexity region (Fmr1, Mus musculus, UniProt P35922)
Method: RNA Bind-n-Seq
Form: RNA
Sample: in vitro
Concentration: 200 nM
Notes: whole 134-nt RNA, ends assumed
With: 150 mM KCl
Baseline: input library
Reading: higher = stronger binding
Measurement: log2 enrichment
Constant ends, left off below: GGGAGUUCUACAGUCCGACGAUC … UGGAAUUCUCGGGUGUCAAGG
CAAGUCCUGUGCUACACAUCGUAUGUACCGAAUCGGUUUGGGUUUGGGGUUUGGGGAAAGUAUUAUGUUACGCCGUUCGGAUCUGCACUU: -0.0635
AGUCCUGUGCUACACAUCGUAUGUACCGAAUCGGAAAAAAAGGUUUUUUUGGAAAGGAAAGUAUUAUGUUACGCCGUUCGGAUCUGCACU: -1.6
ACCAUGCAGGUGGGCAUCUUUGGGAAGUGGGGCAAGGGGGGGAUAGGGAGGGGGGUCACACUUUGGGAACAGGUGGUCCCAGGUCGUUUC: 1.11
UCCUGUGCUACACAUCGUAUGUACCGAAUCGGCCCCCCGGGGCCCCCCGGCCCCCCGGGGAAAGUAUUAUGUUACGCCGUUCGGAUCUGC: -0.431
UAGCUUUAGAGGAGGAUCUGAUGGAUAUGGCAGUGGACGUGGAUUUGGGGAUGGCUAUAAUGGGUAUGGAGGAGGACCUGGAGGUGGCAA: 0.277
AGUCCUGUGCUACACAUCGUAUGUACCGAAUCGGGAAAAAAAGGGUGGGAAAAAGGGAAAGUAUUAUGUUACGCCGUUCGGAUCUGCACU: 0.341
AAGUCCUGUGCUACACAUCGUAUGUACCGAAUCGGGGUGGGGAGGGGUUUUUGGGGAAAGUAUUAUGUUACGCCGUUCGGAUCUGCACUU: 1.08
AAGUCCUGUGCUACACAUCGUAUGUACCGAAUCGGGUUUUGGUUUUGGGGUUUUGGGAAAGUAUUAUGUUACGCCGUUCGGAUCUGCACU: -0.0112
CUCAAGUCCUGUGCUACACAUCGUAUGUACCGAAUCGGGUUGGGUUGGGGUUGGAAAGUAUUAUGUUACGCCGUUCGGAUCUGCACUUCC: 0.344
UGGGAGGUGGAUUUUGUUUAUUUUUUUAGCUCUUUUCCAGGGGUGGGAAUUUUUUUUUAAUAUGUGUCAUGAAUAAAGUUGUUUUUGAAA: 0.248
GUCCUGUGCUACACAUCGUAUGUACCGAAUCGGGAAAAAAAGGGUGGGAAAAAAAGGGAAAGUAUUAUGUUACGCCGUUCGGAUCUGCAC: -0.194
CCUCAAGUCCUGUGCUACACAUCGUAUGUACCGAAUCGGGUGGGUGGGAGGGAAAGUAUUAUGUUACGCCGUUCGGAUCUGCACUUCCAG: 0.879
ACCAUGCAGGUGGGCAUCUUUGGGAAGUGGGGCAAGGGGGGGAUAGGGAGGGGGGUGACACUUUGGGAACAGGUGGUCCCAGGUCGUUUC: 0.574
CUCAAGUCCUGUGCUACACAUCGUAUGUACCGAAUCGGGUUUGGGUGGGAGGGAAAGUAUUAUGUUACGCCGUUCGGAUCUGCACUUCCA: 1.32

Excerpt of the above (block 4):
ACCAUGCAGGUGGGCAUCUUUGGGAAGUGGGGCAAGGGGGGGAUAGGGAGGGGGGUCACACUUUGGGAACAGGUGGUCCCAGGUCGUUUC: 1.11
UCCUGUGCUACACAUCGUAUGUACCGAAUCGGCCCCCCGGGGCCCCCCGGCCCCCCGGGGAAAGUAUUAUGUUACGCCGUUCGGAUCUGC: -0.431
UAGCUUUAGAGGAGGAUCUGAUGGAUAUGGCAGUGGACGUGGAUUUGGGGAUGGCUAUAAUGGGUAUGGAGGAGGACCUGGAGGUGGCAA: 0.277
AGUCCUGUGCUACACAUCGUAUGUACCGAAUCGGGAAAAAAAGGGUGGGAAAAAGGGAAAGUAUUAUGUUACGCCGUUCGGAUCUGCACU: 0.341
